Published values from different studies.
Each numbered part is a random draw from the data of one study; scales do not carry over between parts.

Study 1
Target: RNA binding protein fox-1 homolog 2, RRM domain, GST-SBP tag (RBFOX2, Homo sapiens, UniProt O43251-10, residues 100-194)
Technique: RNA Bind-n-Seq
Form: RNA
Medium: in vitro
Tested at: 365 nM
Setting: natural RNA segment, single round, ends assumed
Relative to: no-protein control
Direction: higher = stronger binding
All sequences stand within: GGGAGUUCUACAGUCCGACGAUC … UGGAAUUCUCGGGUGCCAA
Target sequence (chain): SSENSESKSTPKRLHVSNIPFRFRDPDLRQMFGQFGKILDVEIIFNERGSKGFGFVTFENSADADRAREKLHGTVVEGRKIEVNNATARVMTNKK
Strand | RBNS enrichment (R)
UUUCAGAAUGUGGAAGUUACUAGGCCUGUCAAGCCAUCACUUCACCCCAAGAUCUCCAGUUUUAGAAGAGACCUGCACAUAAGAGGACUUCAUGUCAAGAUCACUACAAC | 0.302
GUGAUUGUCAAUAUUACAGAAAACAAAAAUGGAUUGCCCCUCCAAGGACCAAACAGAUUCAAGGAGCAUCAUUUAAGCUAAGAAGAGACCUAAGUGAUGAAACUAGCUGU | 0.29
GAGCCAAGCCUGGUAGGAUUUGUCUUUAAAAGUAGCAAUAGUAAGAGAGGCAAGUCAAGGGAAAGAGAACAGUAGACAUGCCUCUCAUCAUUCUCUUGGUGUCUCUUUUU | 0.577
GCAUUGCAGGAUUAUUAGUGUAUUUUGAGUCUGUAAAAAUAAUAAAUAUGUUUGAAGUAGUUUCCCAUUGUGUAGUUAGUUUCCUUAUCAAUCAUGAUAGGUAUCCAGGA | 1.34
GGGGUAUCCCACUGCUAUACUGUUCUACUGCUUCCCUCAGUAUCUGAAUGUCUCAAUUUAAAACUUGAAGCUCUUUAGACCAAUAGACUGGUGAGAGGAGAAAGGAGCUU | 0.336
CAGGUGAGAAGCUCCAGGAACUACUGGCUACCUUGACAAGCUGGGUAAAUAGUUAUCAUUCUGGGUAACUGGUUGAAACUCUGACUUUUGGACAAGUAAUUCCUGGGGUU | 0.565
GCCACUGAACACCUCCACCAGCUCUUUGGGAAUUGGAUGGAAAGGCGGCCCCUGGGGGCCAGGGGUGUGCAGCUUCCCACUCACGGGAGGAGUGGCCAGGGCUCUUGGUU | 0.494
UUCUUAGAGACUGCUUCUCCCAAACAUAACGCGUUAGCCAUGAAGGAGUCGGAGCCCUGGGUCCGAAUGGACCCGCCUGCGGUCUGCAUCAGCCUCUGGGAAACCACAGC | 0.255

Study 2
Target: Centromere-binding protein 1, full length, N-terminal tag (CBF1, Saccharomyces cerevisiae, UniProt P17106, residues 1-351)
Sequence of UniProt P17106 (whole entry, looked up): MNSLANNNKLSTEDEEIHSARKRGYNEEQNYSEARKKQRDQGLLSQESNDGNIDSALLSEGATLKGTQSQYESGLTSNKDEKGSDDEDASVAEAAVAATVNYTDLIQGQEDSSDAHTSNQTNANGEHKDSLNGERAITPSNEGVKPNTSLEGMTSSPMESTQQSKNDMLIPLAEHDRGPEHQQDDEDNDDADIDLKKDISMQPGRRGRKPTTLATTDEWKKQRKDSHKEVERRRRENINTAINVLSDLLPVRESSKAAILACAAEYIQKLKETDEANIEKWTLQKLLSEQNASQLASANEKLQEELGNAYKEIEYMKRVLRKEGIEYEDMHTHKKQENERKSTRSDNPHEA
Technique: protein-binding microarray
Form: double-stranded DNA, one strand shown
Medium: in vitro
Tested at: 0.8 µM
Setting: whole 60-bp probe, no competitor
Direction: higher = stronger binding
All sequences stand within: … GTCTTGATTCGCTTGACGCTGCTG
Strand | fluorescence intensity [a.u.]
GAATTTGCAATAGATCAGATGATATCTCACTCTTAG | 765
CCTAACTACTATAATCACCTTTAATAGCTTCGTACA | 515
CTATACAAAAGAATCCTCGTGTGTTTGTGTGTGTTC | 567
CTATCCCCCAGACACCACCTCTTTTGTTCACTTTTC | 512
GAATGCTTTACTATCCACGTTCGAATATTATTTTAG | 551
CCTAACTACTATAAGGACGTGTCATAGCTTCGTACA | 516
GAACAAACCATCTGATGTTAGATAATATATAAGTAG | 646
GAAATCCACCTTCATCTCAGCTGTCCACATTAATAG | 504
GAACTGAGACTTGATCACGATAAATACCTACCATAG | 640
GAACGTTGGAGCCATCTCCTGAATTCCATTTTATAG | 473
TGTACGAAGCTATCCCACGGTACTATAGTAGTTAGG | 505
GAATGATAATGTGAACACGTCATCATAGACGGTTAG | 569
GAAATCTTTTTTTTTTGCGTGATCTTTATCAATTAG | 682
GAAGCATGCAATCGTGGTCAGAATTCTAACTTTTAG | 502
GAACTTCTTACACCGCATGTGATAATATACTACTAG | 1380
CTATCAAATAGACGTCACCCCATCATCCCACATTTC | 567
GAAGCATTCTTTGCCTGCGTGGCTTTCGTCCGCTAG | 507

Study 3
Target: RING finger protein unkempt homolog, zinc fingers 1-6, GST-SBP tag (UNK, Homo sapiens, UniProt Q9C0B0, residues 30-357)
Technique: RNA Bind-n-Seq
Form: RNA
Medium: in vitro
Tested at: not given
Setting: RNA with constant flanks, human-mouse chimeric sites, ends assumed
Relative to: input RNA pool
Direction: higher = stronger binding
All sequences stand within: GGGAGUUCUACAGUCCGACGAUC … CAACAGAGGAUUGAGCAUCA
Construct (chain): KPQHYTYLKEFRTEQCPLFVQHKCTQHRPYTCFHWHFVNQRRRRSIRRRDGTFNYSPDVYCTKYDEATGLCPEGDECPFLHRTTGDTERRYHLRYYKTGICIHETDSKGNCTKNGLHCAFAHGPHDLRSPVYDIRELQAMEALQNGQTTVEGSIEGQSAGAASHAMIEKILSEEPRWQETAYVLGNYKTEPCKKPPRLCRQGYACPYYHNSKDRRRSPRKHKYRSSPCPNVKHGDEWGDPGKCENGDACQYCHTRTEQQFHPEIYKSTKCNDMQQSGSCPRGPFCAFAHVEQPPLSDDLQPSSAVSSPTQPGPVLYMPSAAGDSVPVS
Strand | bound/input enrichment
AGCGUUCAGGAAUUCAUGACCUUCACGAGUCAACUGAUUGUGGAACGCUCGGGGAAAGGCAGCAGAGCUUCUGUCAAAGAACAAGAGUAUCUUUGCCAUGUCUACGUCCGGAGCGACAGU | 0.0753 ratio
AAAGAGAAACUAAAGCAACUAAUAGAGAAGAGGAUUGGCAAAGAGAAAUUUCAUAGAGAAACUAGGAUUAUUAGCAAACAUGAGUUAUAUUCCAGAGCGUCUCAGAAACCCCAGCCAAAC | 3.01 ratio
GUAUACGGUUAUCGAGGAAAGGACUGUAGAGCGAAUGUAUACCUGCUUCCCACAGGGGAGAUAGUUUAUUUUAUCGCAUCAGUAGUAGUCCUGUUUAAUUAUGAGGAGAGGACUCAGCGA | 3.19 ratio
AGAUAUUAAGUAUUUUGAAAAAACUCGAACAGAUUUGUCAAGGGUAACCAGCUUGGAGUCUAGCAACUUGCCAAUGUGUUUACCAAUCUGGGGGCUUGUUUUUCUUUUCUUCUUUCAAAU | 0.276 ratio
UCCCAAAUCCAGCAGCUCCUUGAAAUAUUGAGACAAACACUCCACACACAGGGAAGGCAAUAGCUUUGUACAUUGGUUUACAUUUUUUCCCCCUGUGGAUUUUUCUAGAGGUCAUAGUGC | 0.717 ratio
CCAAUUGUGGAGCAGUACUUGAAGACAAAGAAAAAUUCUAGUCAUUUAAUCAUCAAGUACAUUAGCUGCCGCCUGCUGACACUCAUCAUUAUACUGUUAGCGUGUAUCUACCUGGGCUAU | 0.593 ratio
ACUCAGAGAUCCACCUCCCAAAGUGCUCUGGAGCUCUGUGUGGCCACCACACCUAACUUGAUGGAUAUUUUAUAAAGUUAAUAUGAAUCUUCCUGUUCGUCCAGGGAAGAAAGAUUUGUU | 0.602 ratio
ACCUCCCCCUCCCGCCUCACCCCACCCAAGAAAGAAAGAAAGUUUUUGGCUUUUUUUUUCCUUCCCCAUACAAAGUGAUUACAGUUUCCCCCGCAAGGGUCUAUCGAAGGGCUUGACGGA | 0.599 ratio

Study 4
Target: Interferon regulatory factor 3, full length, phosphomimetic (IRF3, Homo sapiens, UniProt Q14653, residues 1-427, S386D/S396D/S398D/S402D/T404D/S405D)
Sequence of UniProt Q14653 (whole entry, unmodified, looked up): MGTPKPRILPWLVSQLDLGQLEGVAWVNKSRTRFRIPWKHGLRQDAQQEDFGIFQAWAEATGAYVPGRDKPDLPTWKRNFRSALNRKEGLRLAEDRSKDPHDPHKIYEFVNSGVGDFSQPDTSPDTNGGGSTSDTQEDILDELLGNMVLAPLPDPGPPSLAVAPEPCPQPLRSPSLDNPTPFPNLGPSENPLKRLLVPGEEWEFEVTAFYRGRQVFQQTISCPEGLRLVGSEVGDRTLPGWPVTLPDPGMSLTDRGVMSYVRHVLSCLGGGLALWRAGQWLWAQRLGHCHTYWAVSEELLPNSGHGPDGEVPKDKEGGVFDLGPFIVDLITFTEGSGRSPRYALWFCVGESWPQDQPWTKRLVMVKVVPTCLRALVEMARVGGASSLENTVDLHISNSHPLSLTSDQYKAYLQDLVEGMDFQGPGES
Technique: protein-binding microarray
Form: double-stranded DNA, one strand shown
Medium: in vitro
Tested at: 2540 nM top
Setting: 60-bp whole probe
Together with: salmon DNA 0.4 mg/ml
Relative to: random background probes
Direction: higher = stronger binding
All sequences stand within: GCCTAGCAC … GTCTTGATTCGCTTGACGCTGCTG
Strand | fitted relative affinity [z-score]
GACGCACTGGGTTTCGGGACGTGCTAG | 1.17
TTAGGTATCGGGTTTCGGATAGTGCTA | 3.42
TTACGTTTCGGTTCCGGTTAGTGCTAG | 9.22
GACGATTTCAGTCTCGAGGCGTGCTAG | 2.34
TCAGTTATCCATCTCAAACTGTGCTAG | 3.77
GACGATCACAGTATCGAGACGTGCTAG | 0.723
TTAAGTCTCCTTATCCTTTAGTGCTAG | 3.53
TTAGGACTGGACTTTCGGTCAGTGCTA | 0.198
ACCCATTGAGATTTCCATTAGTGCTAG | 0.918
TTAGGACTGGACTATCGGCTAGTGCTA | -0.653
GACGGTTTCCTACTGCCGACGTGCTAG | 6.01
TTAGGTTTCCTTTCCCTTTCGTGCTAG | 10.7
GACGGTATCCTACTGCCGACGTGCTAG | 3.18
AGCACTCTTCTTTTTTTTCTGTGCTAG | 0.921
CCATCGATTTCTCTTTCCCAAGTGCTA | 2.71
TTAGGTATCGGGTTCGGTTAGTGCTAG | 2.18
TCAGTTGTAGGTTTTCTGACTGTGCTA | 0.311
TCATCTTTTCATTACTGACTGTGCTAG | 1.64
GACGGCCTCCTTCTCCTGACGTGCTAG | 0.742
